Measured values pooled from the literature.
Every numbered part comes from another study and shows a few of its results, in no order. Substitutions count along the parent as printed.
UniProt P00519, sequence (whole entry, unmodified, looked up): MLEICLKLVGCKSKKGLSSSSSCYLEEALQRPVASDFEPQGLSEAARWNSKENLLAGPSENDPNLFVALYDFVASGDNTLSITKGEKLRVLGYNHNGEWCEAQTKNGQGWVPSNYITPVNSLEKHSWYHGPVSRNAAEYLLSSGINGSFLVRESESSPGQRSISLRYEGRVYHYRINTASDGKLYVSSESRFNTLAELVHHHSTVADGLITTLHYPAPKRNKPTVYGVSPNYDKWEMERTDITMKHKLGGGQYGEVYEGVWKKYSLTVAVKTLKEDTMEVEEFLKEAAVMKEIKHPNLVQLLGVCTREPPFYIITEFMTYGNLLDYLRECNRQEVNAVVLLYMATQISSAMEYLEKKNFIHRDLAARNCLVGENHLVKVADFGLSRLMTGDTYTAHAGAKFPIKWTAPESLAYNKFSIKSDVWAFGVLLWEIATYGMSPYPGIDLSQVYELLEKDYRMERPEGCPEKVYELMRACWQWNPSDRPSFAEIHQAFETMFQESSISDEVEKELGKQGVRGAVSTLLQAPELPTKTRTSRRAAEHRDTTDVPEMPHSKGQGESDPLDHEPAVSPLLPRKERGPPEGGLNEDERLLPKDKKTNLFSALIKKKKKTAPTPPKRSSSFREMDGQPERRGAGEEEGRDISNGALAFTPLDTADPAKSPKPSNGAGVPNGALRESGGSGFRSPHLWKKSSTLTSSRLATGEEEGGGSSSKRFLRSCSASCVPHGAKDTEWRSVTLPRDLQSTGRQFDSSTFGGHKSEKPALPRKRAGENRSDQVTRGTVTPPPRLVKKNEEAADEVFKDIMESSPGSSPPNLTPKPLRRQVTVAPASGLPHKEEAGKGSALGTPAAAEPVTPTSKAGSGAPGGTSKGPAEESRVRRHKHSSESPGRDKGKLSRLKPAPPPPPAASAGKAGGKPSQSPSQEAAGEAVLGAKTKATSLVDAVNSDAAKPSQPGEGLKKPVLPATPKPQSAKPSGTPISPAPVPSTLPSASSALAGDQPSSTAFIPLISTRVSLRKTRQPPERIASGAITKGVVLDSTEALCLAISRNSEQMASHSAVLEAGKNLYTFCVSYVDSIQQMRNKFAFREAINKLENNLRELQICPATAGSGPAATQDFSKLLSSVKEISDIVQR

Set 1
Target: RNA binding protein fox-1 homolog 2, RRM domain, GST-SBP tag (RBFOX2, Homo sapiens, UniProt O43251-10, residues 100-194)
Technique: RNA Bind-n-Seq
Form: RNA
Matrix: in vitro
Concentration: 365 nM
Notes: natural RNA segment, single round, ends assumed
Relative to: no-protein control
Reading: higher = stronger binding
Residues (chain): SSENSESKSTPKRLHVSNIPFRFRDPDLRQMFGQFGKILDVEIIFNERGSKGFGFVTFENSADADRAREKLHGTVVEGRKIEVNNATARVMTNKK
`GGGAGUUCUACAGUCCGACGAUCUCUUUCUACAACUGUGUUCUGUGACUCAAUUGUAUCGUGUUAAUAUCAGUGCAGACUGUCUCCUCUACGUGACCGUAUAAUGUUUUUCUCUUCUUGUAGUCUCUAUGGCGUGGAAUUCUCGGGUGCCAA` — result for “RBNS enrichment (R)”: 0.886.
For `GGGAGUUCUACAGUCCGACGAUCCAGUUUACCUUCAAGUAAUAUUAUCUUUAUUUUUAGGCUAAGCACGUUUGAUUAUUUUGUCUGUCUCCUAUAUAGAUCUGUUUUGUCUAGUGCUAUGAAUGUAACUUAAAUGGAAUUCUCGGGUGCCAA`, “RBNS enrichment (R)” read 2.77.
Under “RBNS enrichment (R)”, `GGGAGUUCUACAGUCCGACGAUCUUCCCUAAAGGAAUUUAUAAGCAGGCAACUUCAUUCCUAUGUAUAAGAUAUUGGGAGAAAACAAACUGUACCACAACAAAUCUUAAGUUUCAAGGCUCUCCUAUAGGGAGUGGAAUUCUCGGGUGCCAA` is recorded as 0.323.
Under “RBNS enrichment (R)”, `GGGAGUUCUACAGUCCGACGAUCCCUCUUUUCCGUCUCAAAGGAAGCUAACAUCUCAGGCACAGACAUAGCCAAAAGUCCAUACACCCAUUGCCAGGCACUCCCAUAAGUCACAUGUGAAUUUUCUCUACACAUGGAAUUCUCGGGUGCCAA` is recorded as 0.51.
`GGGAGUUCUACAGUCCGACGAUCUCAUUAUGGAAAAUAACUUUUGGCAGUUUAGUUCCUAAUGUUAACAAUUCCUCUUUUUAAGAGAGGUACUACAUUUGAUUUCUCAAUUUCUCAGUUUGUUUUCAAUACAAUGGAAUUCUCGGGUGCCAA`: “RBNS enrichment (R)” 0.46.
For `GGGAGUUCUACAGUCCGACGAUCCCCCUCCAGCUUCAGCCUCCAGCUUUAACUUCUGUCUGCUCCUAAUGGGGGCCCAAAGCUCAGGGCUGGGGAGCCUGGGGUCCCCACUUGAAUCUCCAGCAGGAGGGUCCUGGAAUUCUCGGGUGCCAA`, “RBNS enrichment (R)” read 0.49.
Under “RBNS enrichment (R)”, `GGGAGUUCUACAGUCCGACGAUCGUUAUAAAAAUAAGUGAUUUCAGAGUAGAUGUAGUGGCACAUGCUUUUGUCUUUAAUAGAGGAGGCAGAGGGAUCUGUGACUUAAAAGCCAGUCUGAUCUACAUUGUGAGUGGAAUUCUCGGGUGCCAA` is recorded as 0.374.
Under “RBNS enrichment (R)”, `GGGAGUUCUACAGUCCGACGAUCAAGAGUUUUCUUGUUCUGUUGAAGUUUUCACACAAAACGGAAUGAAUGGGACCUCCUGCCAUUCAGUGAGCACUAGGACAGCUGGGACCUCCUGCCAUUCAGUGAGCACUUGGAAUUCUCGGGUGCCAA` is recorded as 0.23.

Set 2
Target: Serine/threonine-protein kinase BRSK2 (BRSK2, Homo sapiens, UniProt Q8IWQ3)
Read-out: enzyme activity
Action: inhibitor
Concentration: 0.5 µM
Relative to: control
Construct (Q8IWQ3 1-736): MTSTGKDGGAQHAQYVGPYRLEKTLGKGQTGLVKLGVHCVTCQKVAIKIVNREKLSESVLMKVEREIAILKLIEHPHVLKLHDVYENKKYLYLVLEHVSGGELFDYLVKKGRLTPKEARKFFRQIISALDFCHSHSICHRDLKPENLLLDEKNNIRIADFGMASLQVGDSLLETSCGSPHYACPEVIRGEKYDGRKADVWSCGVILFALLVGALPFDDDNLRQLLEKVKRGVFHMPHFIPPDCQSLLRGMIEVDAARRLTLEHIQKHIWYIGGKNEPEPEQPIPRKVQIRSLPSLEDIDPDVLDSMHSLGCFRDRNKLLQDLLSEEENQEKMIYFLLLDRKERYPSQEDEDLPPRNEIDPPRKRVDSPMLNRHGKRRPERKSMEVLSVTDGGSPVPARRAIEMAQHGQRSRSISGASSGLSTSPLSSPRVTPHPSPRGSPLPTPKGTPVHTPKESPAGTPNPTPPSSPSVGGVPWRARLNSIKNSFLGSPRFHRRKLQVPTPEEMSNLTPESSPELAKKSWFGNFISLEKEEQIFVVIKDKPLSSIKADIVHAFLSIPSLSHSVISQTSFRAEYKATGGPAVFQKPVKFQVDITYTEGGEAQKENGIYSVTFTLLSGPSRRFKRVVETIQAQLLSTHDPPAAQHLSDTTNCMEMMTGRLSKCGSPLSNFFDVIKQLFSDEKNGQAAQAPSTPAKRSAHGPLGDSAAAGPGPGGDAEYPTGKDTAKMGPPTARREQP
The remaining activity of `Clc1ccc(Nc2nnc(Cc3ccncc3)c3ccccc23)cc1` is reported as 97.1%.
`C[C@@H](N)[C@H]1CC[C@H](C(=O)Nc2ccncc2)CC1` has a remaining activity of 92.7%.
For `COc1cc2c(Nc3ccc(Br)cc3F)ncnc2cc1OCC1CCN(C)CC1`, the remaining activity was 104%.

Set 3
Target: FOSL2, bZIP domain (human)
Technique: DHFR protein complementation
Matrix: yeast
Notes: single substitutions, most at no-binding floor
Relative to: wild-type JUN-FOS pair
Reading: higher = stronger binding
Parent: JUN, bZIP domain (human); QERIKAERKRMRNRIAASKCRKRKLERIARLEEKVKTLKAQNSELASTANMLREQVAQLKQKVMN; partner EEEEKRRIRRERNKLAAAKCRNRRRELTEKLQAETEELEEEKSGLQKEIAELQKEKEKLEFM
The binding fitness of `Q55R` is reported as -0.0429 natural log.
For `L45M`, the binding fitness was -0.0888 natural log.
For `E44G`, the binding fitness was -0.0913 natural log.
For `I28Q`, the binding fitness was -0.0109 natural log.
`V35Q` has a binding fitness of -0.385 natural log.
With `A57T` the binding fitness was -0.0602 natural log.
`L31P` has a binding fitness of -1.12 natural log.
`K39H` has a binding fitness of -0.0987 natural log.

Other studies, line by line
`COc1ccc2c(c1)O[C@@H](c1ccc(OC)c(OC)c1)C[C@H]2NC(=O)C1(c2ccc3c(c2)OC(F)(F)O3)CC1` (single isomer, unassigned) has a remaining binding of 100% (ABL1 (Homo sapiens, UniProt P00519, F317I); KINOMEscan; 1 µM, F317I mutant, nonphosphorylated; relative to: control).
Under “blood fibrinogen increased”, `CC(C)n1cnc(-c2ccc(F)cc2)c1-c1ncc(C(=O)Nc2ccc(N3CCN(C)CC3)cc2)[nH]1` is recorded as 0% (IPF patients; 60 mg once daily, adverse event incidence).

Some of these lines once more (set 1):
`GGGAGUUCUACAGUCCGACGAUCUCAUUAUGGAAAAUAACUUUUGGCAGUUUAGUUCCUAAUGUUAACAAUUCCUCUUUUUAAGAGAGGUACUACAUUUGAUUUCUCAAUUUCUCAGUUUGUUUUCAAUACAAUGGAAUUCUCGGGUGCCAA`: “RBNS enrichment (R)” 0.46.
Under “RBNS enrichment (R)”, `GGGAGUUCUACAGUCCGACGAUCCCUCUUUUCCGUCUCAAAGGAAGCUAACAUCUCAGGCACAGACAUAGCCAAAAGUCCAUACACCCAUUGCCAGGCACUCCCAUAAGUCACAUGUGAAUUUUCUCUACACAUGGAAUUCUCGGGUGCCAA` is recorded as 0.51.
